# Published values from different studies.
# Numbered parts are unrelated; each lists some results of a single study. Values joined by “and” are separate records of one study, mostly repeats; a detail may differ.
# UniProt Q2M2I8, sequence (whole entry, looked up): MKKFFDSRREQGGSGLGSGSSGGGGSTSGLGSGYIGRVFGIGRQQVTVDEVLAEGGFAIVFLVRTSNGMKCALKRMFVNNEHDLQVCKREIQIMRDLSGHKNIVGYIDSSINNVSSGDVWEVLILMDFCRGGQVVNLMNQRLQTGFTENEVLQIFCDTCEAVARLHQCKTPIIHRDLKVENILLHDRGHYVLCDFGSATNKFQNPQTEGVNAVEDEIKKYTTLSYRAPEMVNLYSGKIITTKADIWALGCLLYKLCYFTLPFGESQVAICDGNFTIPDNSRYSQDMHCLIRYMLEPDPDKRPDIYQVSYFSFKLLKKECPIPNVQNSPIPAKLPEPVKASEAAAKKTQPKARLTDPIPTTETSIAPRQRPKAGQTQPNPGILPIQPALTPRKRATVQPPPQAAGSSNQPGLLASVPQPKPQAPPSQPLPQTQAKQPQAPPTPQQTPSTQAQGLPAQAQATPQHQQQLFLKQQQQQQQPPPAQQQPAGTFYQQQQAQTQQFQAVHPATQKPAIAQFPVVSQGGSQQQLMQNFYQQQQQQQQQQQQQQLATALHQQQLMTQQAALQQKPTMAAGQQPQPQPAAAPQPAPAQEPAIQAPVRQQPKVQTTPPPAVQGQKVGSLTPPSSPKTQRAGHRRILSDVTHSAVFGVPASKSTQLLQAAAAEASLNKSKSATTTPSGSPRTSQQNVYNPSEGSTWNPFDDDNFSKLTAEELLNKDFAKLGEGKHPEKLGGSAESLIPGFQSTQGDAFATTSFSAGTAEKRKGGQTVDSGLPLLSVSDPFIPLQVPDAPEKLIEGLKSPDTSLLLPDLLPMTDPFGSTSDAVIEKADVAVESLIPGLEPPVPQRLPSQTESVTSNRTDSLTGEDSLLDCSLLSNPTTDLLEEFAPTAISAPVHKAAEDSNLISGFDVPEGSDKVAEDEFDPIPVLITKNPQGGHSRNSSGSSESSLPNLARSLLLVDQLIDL
# UniProt P08631, sequence (whole entry, looked up): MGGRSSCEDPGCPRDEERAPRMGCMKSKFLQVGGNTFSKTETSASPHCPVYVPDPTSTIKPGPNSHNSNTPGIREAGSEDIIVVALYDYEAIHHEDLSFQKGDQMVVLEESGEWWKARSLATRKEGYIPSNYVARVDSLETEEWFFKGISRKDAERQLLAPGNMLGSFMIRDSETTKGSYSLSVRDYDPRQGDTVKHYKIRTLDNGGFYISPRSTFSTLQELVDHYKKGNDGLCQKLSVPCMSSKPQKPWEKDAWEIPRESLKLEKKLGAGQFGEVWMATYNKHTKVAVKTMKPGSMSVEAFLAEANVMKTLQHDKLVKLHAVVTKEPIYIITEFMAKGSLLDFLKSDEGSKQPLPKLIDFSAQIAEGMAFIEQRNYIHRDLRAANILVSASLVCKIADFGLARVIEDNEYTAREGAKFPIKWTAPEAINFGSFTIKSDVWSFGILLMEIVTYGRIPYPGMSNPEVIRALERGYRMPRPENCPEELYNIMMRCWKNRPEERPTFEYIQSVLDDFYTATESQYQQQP
# UniProt Q9UQ88, sequence (whole entry, looked up): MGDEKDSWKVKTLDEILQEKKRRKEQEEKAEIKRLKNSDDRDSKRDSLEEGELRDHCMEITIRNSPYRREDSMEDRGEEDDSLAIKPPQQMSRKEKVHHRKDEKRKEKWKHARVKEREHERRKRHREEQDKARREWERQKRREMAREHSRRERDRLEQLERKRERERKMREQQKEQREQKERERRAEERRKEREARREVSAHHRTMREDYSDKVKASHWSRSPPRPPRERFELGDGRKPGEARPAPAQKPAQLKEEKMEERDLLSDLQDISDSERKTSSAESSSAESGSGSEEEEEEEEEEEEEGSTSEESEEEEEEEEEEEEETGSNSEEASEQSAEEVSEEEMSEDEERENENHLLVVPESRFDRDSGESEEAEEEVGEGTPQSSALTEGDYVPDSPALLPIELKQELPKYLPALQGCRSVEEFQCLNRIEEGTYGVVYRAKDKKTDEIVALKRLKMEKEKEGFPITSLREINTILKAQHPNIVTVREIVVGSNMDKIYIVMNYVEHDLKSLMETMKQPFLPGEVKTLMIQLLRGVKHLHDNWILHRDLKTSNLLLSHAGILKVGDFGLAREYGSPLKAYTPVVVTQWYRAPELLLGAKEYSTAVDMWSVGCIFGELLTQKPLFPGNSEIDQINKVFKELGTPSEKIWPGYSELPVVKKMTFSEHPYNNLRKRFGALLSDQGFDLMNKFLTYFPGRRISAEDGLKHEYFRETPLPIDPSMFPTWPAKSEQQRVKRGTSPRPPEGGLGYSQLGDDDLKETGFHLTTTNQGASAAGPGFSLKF

# Block 1 — SMILES: CCOc1ccc(Nc2c3c(nc4ccccc24)CCC3)cc1; organism: Leishmania donovani; effect on: parasite killing; strain: DD8
medium,concentration,time,inhibition
promastigotes,1.66 µM,72 h,39% and 41% and 40%
intracellular amastigotes,40 µM,96 h,100%
intracellular amastigotes,2 µM,72 h,80% and 84% and 81%
promastigotes,1.66 µM,24 h,35% and 30%
promastigotes,0.033 µM,24 h,6% and 4%

# Block 2 — effect on: enzyme activity; mode: inhibitor; concentration: 0.5 µM; reference: control
# Target: cGMP-dependent protein kinase 2 (PRKG2, Homo sapiens, UniProt Q13237)
# Construct (Q13237 1-762): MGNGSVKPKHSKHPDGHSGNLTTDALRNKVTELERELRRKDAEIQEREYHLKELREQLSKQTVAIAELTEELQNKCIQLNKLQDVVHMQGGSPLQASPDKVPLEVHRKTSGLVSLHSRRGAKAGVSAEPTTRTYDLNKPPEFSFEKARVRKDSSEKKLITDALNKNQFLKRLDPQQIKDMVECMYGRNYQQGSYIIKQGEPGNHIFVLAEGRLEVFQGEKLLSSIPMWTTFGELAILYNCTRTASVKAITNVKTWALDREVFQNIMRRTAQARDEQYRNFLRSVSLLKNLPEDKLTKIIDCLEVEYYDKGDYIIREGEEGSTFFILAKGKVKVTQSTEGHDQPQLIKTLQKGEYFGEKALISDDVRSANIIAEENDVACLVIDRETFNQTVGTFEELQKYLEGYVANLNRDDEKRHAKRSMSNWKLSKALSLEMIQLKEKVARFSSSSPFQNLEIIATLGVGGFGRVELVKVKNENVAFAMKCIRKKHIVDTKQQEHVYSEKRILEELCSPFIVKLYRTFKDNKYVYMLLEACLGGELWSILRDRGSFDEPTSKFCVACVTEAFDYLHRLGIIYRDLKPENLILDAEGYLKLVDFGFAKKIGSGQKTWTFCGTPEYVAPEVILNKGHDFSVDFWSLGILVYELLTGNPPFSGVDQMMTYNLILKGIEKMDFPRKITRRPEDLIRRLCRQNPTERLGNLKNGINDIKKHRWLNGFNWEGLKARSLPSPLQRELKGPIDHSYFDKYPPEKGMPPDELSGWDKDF
Structure (SMILES),remaining activity [%]
O=C1NC(=O)C(c2cn(CCCO)c3ncccc23)=C1c1cnccn1,118
Cc1cccc(-c2[nH]c(C(C)(C)C)nc2-c2ccc3c(c2)OCO3)n1,95.9
COc1cc2nccc(Oc3ccc(NC(=S)NC(=O)c4ccccc4C)cc3)c2cc1OC,90.5
Cc1ccc(Nc2nccc(N(C)c3ccc4c(C)n(C)nc4c3)n2)cc1S(N)(=O)=O,96
O=C1NC(=O)C(c2cn(CCCn3ccnc3)c3ccccc23)=C1Nc1ccccc1,80.3
Oc1ccc(-c2nc(-c3ccncc3)c(-c3ccc(F)cc3)[nH]2)cc1,94.2
O=c1c2ccccc2[nH]c(=S)n1CCN1CCC(=C(c2ccc(F)cc2)c2ccc(F)cc2)CC1,104
O=C(O)c1ccc2c3c1cccc3c(=O)n1c3ccccc3nc21,94.8
OCC(O)CCON=C1C(c2c(O)[nH]c3ccccc23)=Nc2ccccc21 (centres unmarked),28.1
CO[C@H]1C[C@@H]2CC[C@@H](C)[C@@](O)(O2)C(=O)C(=O)N2CCCC[C@H]2C(=O)O[C@H]([C@H](C)C[C@@H]2CC[C@@H](O)[C@H](OC)C2)CC(=O)[C@H](C)/C=C(\C)[C@@H](O)[C@@H](OC)C(=O)[C@H](C)C[C@H](C)/C=C/C=C/C=C/1C,91.9
O=C(CCCc1ccc(-c2ccccc2F)cc1)Nc1ccc(O)cc1,102
CC(C)[C@H](CO)Nc1nc(Nc2cc(N)cc(Cl)c2)c2ncn(C(C)C)c2n1,88.8
Cn1c2ccccc2c2c3c(c4c5ccccc5n(CCC#N)c4c21)CNC3=O,28.2
NCCNc1ncc(C(N)=O)c(Nc2cccc(C(F)(F)F)c2)n1,89.8
COc1cc2ncnc(Nc3ccc(Oc4ccccc4)cc3)c2cc1OC,98.3
COc1ccc(CNC(=O)Nc2ncc([N+](=O)[O-])s2)cc1,100
Cc1nc(-c2ccccc2)c(-c2ccncc2)o1,85
COc1ccc(C(=O)Nc2sc3c(c2C(N)=O)CCCC3)cc1OC,104
COc1ccc(OC)c2c(=S)c3ccccc3[nH]c12,62.2
Nc1ncnc2n[nH]c(Nc3ccc(F)cc3)c12,97
O=C(Nc1cccc(Nc2cc(Nc3cccc(C(F)(F)F)c3)ncn2)c1)C1CC1,103
O=S(=O)(c1cccc2cnccc12)N1CCCNCC1,98.9
Nc1[nH]nc2nc3ccccc3nc12,66.7
CCOC(=O)c1c(C)[nH]c(/C=C2\C(=O)Nc3ccccc32)c1C,78.9
CNC(=O)c1cc(Oc2ccc(NC(=O)Nc3ccc(Cl)c(C(F)(F)F)c3)cc2)ccn1,90.9

# Block 3 — host: human; medium: microsomes or S9; concentration: 2 µM; time: 0.5 h
Structure (SMILES),remaining compound [%]
CN(C)S(=O)(=O)c1cc2c(cc1NC1CCCC1)Oc1ccccc1NC2=O,> 99
O=C(Nc1nncn1-c1ccccc1)c1cnc2ccccn12,91.8
CC(Nc1ccn(CCS(C)(=O)=O)n1)c1nc(C(C)(C)C)no1 (centres unmarked),76.1
CC1Cc2ccccc2N1C(=O)c1ccc(=O)n(CCC(=O)N2CCN(c3ccccn3)CC2)n1 (centres unmarked),2.65

# Block 4 — organism: Sarcocystis neurona; effect on: parasite growth; concentration: 10 µM; time: 96 h; notes: second screen; reference: untreated
SMILES,log2 fold change
CN(C)CCOC(c1ccc(Cl)cc1)c1ccccn1 (centres unmarked),0.26
COc1cc([C@@H]2c3cc4c(cc3[C@@H](O[C@@H]3O[C@@H]5CO[C@@H](C)O[C@H]5[C@H](O)[C@H]3O)[C@H]3COC(=O)[C@H]23)OCO4)cc(OC)c1O,0.54
CCN1CCC[C@H]1CNC(=O)c1cc(S(N)(=O)=O)ccc1OC,0.08
C[C@H]1COc2c(C3(N)CC3)c(F)cc3c(=O)c(C(=O)O)cn1c23,0.29

# Block 5 — concentration: 1 µM
# Structure (SMILES): CN(C)c1ncnc(-c2ccc3nc(Nc4cc(CN5CCN(C(=O)CC(F)(F)F)CC5)ccn4)[nH]c3c2)c1Cl
target,effect on,method,remaining binding [%]
"Receptor-type tyrosine-protein kinase FLT3 (FLT3, Homo sapiens, UniProt P36888, D835V/ITD)",cell-free assay,competition with immobilised ligand,15
"Cyclin-dependent kinase 11A (CDK11A, Homo sapiens, UniProt Q9UQ88)",cell-free assay,competition with immobilised ligand,100
"Tyrosine-protein kinase HCK (HCK, Homo sapiens, UniProt P08631)",cell-free assay,competition with immobilised ligand,80
"AP2-associated protein kinase 1 (AAK1, Homo sapiens, UniProt Q2M2I8)",binding,,85

# Block 6 — method: RNA Bind-n-Seq; molecule type: RNA; medium: in vitro; concentration: 365 nM; reference: no-protein control; reading: higher = stronger binding
# Target: RNA binding protein fox-1 homolog 2, RRM domain, GST-SBP tag (RBFOX2, Homo sapiens, UniProt O43251-10, residues 100-194)
# Notes: natural RNA segment, single round, ends assumed
# Constant ends, left off below: GGGAGUUCUACAGUCCGACGAUC … UGGAAUUCUCGGGUGCCAA
# Residues (chain): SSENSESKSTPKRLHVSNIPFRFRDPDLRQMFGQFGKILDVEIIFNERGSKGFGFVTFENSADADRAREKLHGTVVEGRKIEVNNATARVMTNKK
Sequence,RBNS enrichment (R)
ACAAACUUCACUCAUCAUUUGAAUACAGUAUUUACAGAGGAUGUUUGAGUUGAGAGCUUUUUUAGGUUUGAGGGGCUUGAUUUUUUUGUAAAUAAAAUUAUGCUUUGUGG,0.571
AAUUGCCAAGUGCCUAUGCAAACCAGCUUUAGGUCCCAAUUCGGGGCCUGCUGGAGUUCCGGCCUGGGCACCAGCAUUUGGCAGCACGCAGGCGGGGCAGUAUGUGAUGG,2.44
CCCCCAUAUGCCCAGUCUUGCUUGAAGUAGCACAGACCCUGUGUGGGUUUGGCCCCUAGCUCCCACCAUGCUCCAUAGCAAAUGGCUAAAUUAAUAAAGAAGCAAAACUG,0.314
ACUUUCUAAAAACUGAUGGUGAAAAGCUCUUACCGAAGCAACAAAAUUCAGCAGACACCUCUUCAGCUUGAGUUCUUCACCAUCUUUUGCAACUGAAAUAUGAUGGAUAU,0.442
UGAGCACUGCUCUAACAACAAGCAUAAUAUAAAAUUAGUUAGAUUUUGCAAGUCUACAAAUGAGCUCUUGCAACAGAACUCACAGCCUUUUUACUUUUUUCCCCUAACUU,0.695
CAGCGCUUCCUUCCUGGGAAGCCUGUCGUCUGGGUUAAUCUGUUGAUGUAUCUUCAUUGUCAUCUCUCAUCCUGAUGUGUGCCAGUUAGAGGACUGUCUGGUAUCCAAGA,0.277
GCUUUUAAAUAUACAAGGGGUUCUUCUUUAAAUAGAGGAAAAGGUUAAUCCUCUCCAGCAGGAUGCCCACUGGAUAUAUUAACAUCUGUAGGUAGUUGGAAGUGUAGAGA,0.643
UUUGAAAGCAGUAUGGCUUCUUCUGUGGGUCUCCCUCUUACUAGACAAGGUGAAAUGAUAAUUCGUGUCAAAUUAAUGUGAAAUUUUUUUCCUGCAUUGUAAUAUUAUGA,0.696

# Excerpt of the above (block 4):
SMILES,log2 fold change
CN(C)CCOC(c1ccc(Cl)cc1)c1ccccn1 (centres unmarked),0.26
COc1cc([C@@H]2c3cc4c(cc3[C@@H](O[C@@H]3O[C@@H]5CO[C@@H](C)O[C@H]5[C@H](O)[C@H]3O)[C@H]3COC(=O)[C@H]23)OCO4)cc(OC)c1O,0.54
CCN1CCC[C@H]1CNC(=O)c1cc(S(N)(=O)=O)ccc1OC,0.08
C[C@H]1COc2c(C3(N)CC3)c(F)cc3c(=O)c(C(=O)O)cn1c23,0.29
